Measured values collected from several papers.
Lines come from different studies, so protocols differ. ± marks the error that the study gave.
USP49 ZnF-UBD domain: Ubiquitin carboxyl-terminal hydrolase 49, ZnF-UBD domain (USP49, Homo sapiens, UniProt Q70CQ1)
UniProt Q70CQ1, sequence (whole entry, looked up): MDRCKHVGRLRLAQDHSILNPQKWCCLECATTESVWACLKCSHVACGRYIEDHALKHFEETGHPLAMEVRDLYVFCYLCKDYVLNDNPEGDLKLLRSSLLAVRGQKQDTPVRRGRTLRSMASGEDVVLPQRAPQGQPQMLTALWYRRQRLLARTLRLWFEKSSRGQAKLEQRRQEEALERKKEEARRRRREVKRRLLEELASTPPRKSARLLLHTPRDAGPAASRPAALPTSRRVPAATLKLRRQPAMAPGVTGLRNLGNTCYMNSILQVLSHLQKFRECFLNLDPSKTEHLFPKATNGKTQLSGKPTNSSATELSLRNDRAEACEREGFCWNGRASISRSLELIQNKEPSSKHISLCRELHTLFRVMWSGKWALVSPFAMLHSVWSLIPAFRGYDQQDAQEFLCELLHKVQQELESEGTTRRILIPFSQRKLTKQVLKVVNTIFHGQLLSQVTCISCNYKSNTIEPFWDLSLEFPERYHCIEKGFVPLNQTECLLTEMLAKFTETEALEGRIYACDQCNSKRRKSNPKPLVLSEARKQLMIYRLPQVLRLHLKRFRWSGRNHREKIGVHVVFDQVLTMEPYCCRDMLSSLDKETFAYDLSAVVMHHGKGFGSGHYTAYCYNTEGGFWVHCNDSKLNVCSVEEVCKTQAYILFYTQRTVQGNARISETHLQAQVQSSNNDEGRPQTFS
ZBTB11/CRBN: ZBTB11/CRBN (Homo sapiens, UniProt O95625+Q96SW2)
UniProt Q96SW2, sequence (whole entry, looked up): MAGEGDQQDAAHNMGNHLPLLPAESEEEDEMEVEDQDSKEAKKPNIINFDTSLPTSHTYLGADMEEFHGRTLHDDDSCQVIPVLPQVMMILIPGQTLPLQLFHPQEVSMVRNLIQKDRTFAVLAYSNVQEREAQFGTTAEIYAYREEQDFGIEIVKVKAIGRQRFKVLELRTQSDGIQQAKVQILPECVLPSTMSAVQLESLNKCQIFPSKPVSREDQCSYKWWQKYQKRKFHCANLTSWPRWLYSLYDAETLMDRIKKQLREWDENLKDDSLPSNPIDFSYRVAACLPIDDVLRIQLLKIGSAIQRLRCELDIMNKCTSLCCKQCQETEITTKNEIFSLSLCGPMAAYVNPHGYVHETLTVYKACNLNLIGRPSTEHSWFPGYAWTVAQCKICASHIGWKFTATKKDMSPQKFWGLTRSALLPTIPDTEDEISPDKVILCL
UniProt O95625, sequence (whole entry, looked up): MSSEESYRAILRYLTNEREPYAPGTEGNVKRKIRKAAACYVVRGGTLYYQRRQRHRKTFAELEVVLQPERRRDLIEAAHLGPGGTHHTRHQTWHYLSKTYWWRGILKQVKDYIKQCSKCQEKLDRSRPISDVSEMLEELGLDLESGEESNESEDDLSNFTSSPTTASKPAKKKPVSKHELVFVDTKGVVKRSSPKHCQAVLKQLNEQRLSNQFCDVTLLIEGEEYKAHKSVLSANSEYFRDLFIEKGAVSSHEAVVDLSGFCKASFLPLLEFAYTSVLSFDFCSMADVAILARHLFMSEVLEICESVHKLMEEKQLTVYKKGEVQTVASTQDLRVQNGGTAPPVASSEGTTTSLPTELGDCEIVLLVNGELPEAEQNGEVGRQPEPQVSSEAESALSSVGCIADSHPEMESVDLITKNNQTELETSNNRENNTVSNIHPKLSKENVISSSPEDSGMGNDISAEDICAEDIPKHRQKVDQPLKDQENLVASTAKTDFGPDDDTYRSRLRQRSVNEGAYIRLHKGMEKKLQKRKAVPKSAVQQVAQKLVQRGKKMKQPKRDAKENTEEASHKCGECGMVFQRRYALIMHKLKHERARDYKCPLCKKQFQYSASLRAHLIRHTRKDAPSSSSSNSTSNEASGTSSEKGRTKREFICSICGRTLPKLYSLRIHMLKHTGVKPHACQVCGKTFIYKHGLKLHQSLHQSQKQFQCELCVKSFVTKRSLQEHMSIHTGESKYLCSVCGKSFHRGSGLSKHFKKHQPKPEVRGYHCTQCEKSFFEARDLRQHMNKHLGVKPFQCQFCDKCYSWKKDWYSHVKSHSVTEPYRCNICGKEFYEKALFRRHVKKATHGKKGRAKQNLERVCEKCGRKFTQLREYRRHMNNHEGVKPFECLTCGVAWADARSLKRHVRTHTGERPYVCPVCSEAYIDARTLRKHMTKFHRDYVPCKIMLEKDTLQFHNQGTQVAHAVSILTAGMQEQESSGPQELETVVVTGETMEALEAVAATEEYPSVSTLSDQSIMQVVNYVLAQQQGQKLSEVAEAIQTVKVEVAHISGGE
Alpha-carbonic anhydrase: Alpha-carbonic anhydrase (Enterococcus faecium, UniProt Q3XYE8)
USP20 ZnF-UBD domain: Ubiquitin carboxyl-terminal hydrolase 20, ZnF-UBD domain (USP20, Homo sapiens, UniProt Q9Y2K6)
UniProt Q9Y2K6, sequence (whole entry, looked up): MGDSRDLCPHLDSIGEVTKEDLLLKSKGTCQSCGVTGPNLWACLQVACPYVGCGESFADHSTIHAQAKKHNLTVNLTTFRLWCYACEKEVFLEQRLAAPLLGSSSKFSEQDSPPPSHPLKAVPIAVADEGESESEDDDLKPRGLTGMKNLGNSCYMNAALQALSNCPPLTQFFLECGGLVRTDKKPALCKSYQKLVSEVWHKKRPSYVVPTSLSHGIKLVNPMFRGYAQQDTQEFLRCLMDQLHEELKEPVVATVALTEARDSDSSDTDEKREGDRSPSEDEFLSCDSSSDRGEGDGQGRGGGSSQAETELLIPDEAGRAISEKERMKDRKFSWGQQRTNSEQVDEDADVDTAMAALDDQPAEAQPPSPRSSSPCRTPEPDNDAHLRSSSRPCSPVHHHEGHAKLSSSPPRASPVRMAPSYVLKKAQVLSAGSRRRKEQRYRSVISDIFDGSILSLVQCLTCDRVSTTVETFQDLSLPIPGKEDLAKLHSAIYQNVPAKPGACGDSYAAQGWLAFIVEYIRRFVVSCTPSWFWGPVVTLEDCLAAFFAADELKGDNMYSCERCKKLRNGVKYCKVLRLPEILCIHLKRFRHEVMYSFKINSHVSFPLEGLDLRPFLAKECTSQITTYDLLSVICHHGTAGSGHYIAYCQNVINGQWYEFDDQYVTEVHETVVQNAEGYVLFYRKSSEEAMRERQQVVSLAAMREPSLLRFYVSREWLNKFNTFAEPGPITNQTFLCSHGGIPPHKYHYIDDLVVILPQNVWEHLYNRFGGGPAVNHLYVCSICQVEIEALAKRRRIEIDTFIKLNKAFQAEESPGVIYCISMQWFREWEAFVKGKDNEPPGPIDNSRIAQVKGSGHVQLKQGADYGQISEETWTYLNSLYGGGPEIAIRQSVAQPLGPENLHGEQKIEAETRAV
UniProt Q9Y616, sequence (whole entry, looked up): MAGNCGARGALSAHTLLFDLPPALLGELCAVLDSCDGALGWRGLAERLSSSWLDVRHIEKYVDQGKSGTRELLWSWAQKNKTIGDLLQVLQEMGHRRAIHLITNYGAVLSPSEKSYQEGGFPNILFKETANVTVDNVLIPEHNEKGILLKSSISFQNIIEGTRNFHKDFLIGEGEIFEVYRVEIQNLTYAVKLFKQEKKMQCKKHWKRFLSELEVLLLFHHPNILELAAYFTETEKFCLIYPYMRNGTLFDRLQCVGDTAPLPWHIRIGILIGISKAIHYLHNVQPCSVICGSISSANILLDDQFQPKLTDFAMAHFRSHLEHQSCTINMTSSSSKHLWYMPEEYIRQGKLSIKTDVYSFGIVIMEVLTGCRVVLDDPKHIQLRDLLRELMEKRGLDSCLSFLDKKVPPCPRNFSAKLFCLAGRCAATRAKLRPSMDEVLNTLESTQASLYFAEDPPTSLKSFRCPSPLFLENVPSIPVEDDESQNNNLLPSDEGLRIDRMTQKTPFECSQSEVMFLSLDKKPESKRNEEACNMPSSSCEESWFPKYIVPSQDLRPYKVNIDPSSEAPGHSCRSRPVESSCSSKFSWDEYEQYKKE
UniProt P07947, sequence (whole entry, looked up): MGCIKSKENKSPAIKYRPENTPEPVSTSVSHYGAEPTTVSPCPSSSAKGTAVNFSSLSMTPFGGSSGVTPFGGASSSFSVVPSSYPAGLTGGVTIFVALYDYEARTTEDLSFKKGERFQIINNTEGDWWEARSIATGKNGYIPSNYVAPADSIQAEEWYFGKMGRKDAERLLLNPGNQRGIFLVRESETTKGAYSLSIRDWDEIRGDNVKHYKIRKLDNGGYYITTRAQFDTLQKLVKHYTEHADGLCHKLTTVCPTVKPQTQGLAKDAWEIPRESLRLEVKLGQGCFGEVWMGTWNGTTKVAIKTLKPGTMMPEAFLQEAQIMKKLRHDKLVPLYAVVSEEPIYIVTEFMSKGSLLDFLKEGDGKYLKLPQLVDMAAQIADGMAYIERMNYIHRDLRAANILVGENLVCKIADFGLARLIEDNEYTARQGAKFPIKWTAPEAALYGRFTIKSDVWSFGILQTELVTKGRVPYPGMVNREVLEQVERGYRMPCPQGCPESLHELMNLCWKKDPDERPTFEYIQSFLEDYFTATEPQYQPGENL

SMILES | tested on | test | system | conditions | how to read | endpoint | result
CSc1nc(C)c(CCC(=O)O)c(=O)[nH]1 | USP49 ZnF-UBD domain |  |  |  |  | Kd | > 1000 µM
CCC(C)(NCCc1ccc(Cl)c(C(F)(F)F)c1)c1cccc(NC2=CC(=O)N(C3CCC(=O)NC3=O)C2=O)c1 (stereo not drawn) | ZBTB11/CRBN | degrader | human cells |  |  | DC50 | 0.18 ± 0.14 µM
CN1CCN(c2ccc(Nc3ncc4cc(C#N)c(=O)n(C5CCCC5)c4n3)cc2)CC1 | YES1 (Homo sapiens, UniProt P07947) |  |  |  |  | IC50 | 0.063 µM
NCCC(=O)Nc1nnc(S(N)(=O)=O)s1 | Alpha-carbonic anhydrase | CO2 hydration, inhibitor, stopped-flow kinetics |  |  |  | Ki | 0.0567 µM
CCC(C)(NCCc1ccc(C)cc1)c1cccc(NC2=CC(=O)N(C3CCC(=O)NC3=O)C2=O)c1 (stereo not drawn) | ZBTB11/CRBN | degrader, HiBiT luminescence, item: endogenous HiBiT-tagged protein |  |  |  | DC50 | 16 µM
CC[C@@H]1[C@H](F)C(=O)N[C@@H]1COc1nccc2cc(C(N)=O)c(OC)cc12 | IRAK3 (Homo sapiens, UniProt Q9Y616) | ATP-site binding, ActivX kinase profiling | THP-1 cell lysate | protein kinase domain probe peptide |  | IC50 | 0.33 µM
O=C1CCC(N2C(=O)C=C(Nc3cccc(C4(NCCc5ccc(C(F)(F)F)c(Cl)c5)CCC4)c3)C2=O)C(=O)N1 (stereo not drawn) | ZBTB11/CRBN | degrader, HiBiT | MOLT-4 | 5 h |  | DC50 | 0.22 ± 0.19 µM
NS(=O)(=O)c1nnc(NC(=O)C2CCC3(CCCC3)CC2)s1 | Alpha-carbonic anhydrase | CO2 hydration, inhibitor, stopped-flow kinetics |  |  |  | Ki | 0.043 µM
Nc1nc(CC(=O)O)cs1 | USP49 ZnF-UBD domain |  |  |  |  | Kd | > 1000 µM
CC(C)(C(=O)Nc1nnc(S(N)(=O)=O)s1)C1CCCCC1 | Alpha-carbonic anhydrase | CO2 hydration, inhibitor, stopped-flow kinetics |  |  |  | Ki | 0.0271 µM
Cc1cc(NC(=O)CCC(=O)O)nn1C | USP20 ZnF-UBD domain |  |  |  |  | Kd | 777 µM
NS(=O)(=O)c1nnc(NC(=O)C(F)C2CCCCC2)s1 (stereo not drawn) | Alpha-carbonic anhydrase | CO2 hydration, inhibitor, stopped-flow kinetics |  |  |  | Ki | 0.0114 µM
Cc1ncc(C[n+]2csc(CCOP(=O)(O)O)c2C)c(N)n1 |  | binding, equilibrium dialysis LC-MS |  | 5 µM, thermostabilized A2AR-BRIL construct | reference: no-protein control, direction not given | z-scored log2 fold change | 0.303
CC1CCCC(C(=O)Nc2nnc(S(N)(=O)=O)s2)C1 (stereo not drawn) | Alpha-carbonic anhydrase | CO2 hydration, inhibitor, stopped-flow kinetics |  |  |  | Ki | 0.0458 µM
NC(=O)c1cc(-n2c(CCC(=O)O)nc3ccccc32)cs1 | USP20 ZnF-UBD domain |  |  |  |  | Kd | 464 µM
CCC(C)(NCCc1ccc(C(F)(F)F)c(Cl)c1)c1cccc(NC2=CC(=O)N(C3CCC(=O)NC3=O)C2=O)c1 (stereo not drawn) | ZBTB11/CRBN | degrader, HiBiT | MOLT-4 | 5 h |  | DC50 | 0.44 ± 0.15 µM
NCC(=O)O |  | binding, equilibrium dialysis LC-MS |  | 5 µM, thermostabilized A2AR-BRIL construct | reference: no-protein control, direction not given | z-scored log2 fold change | 0.0292
O=C(O)CSc1nnc(NC(=O)COc2ccccc2)s1 | USP49 ZnF-UBD domain |  |  |  |  | Kd | > 1000 µM
